Measured values pooled from the literature.
Each numbered part is a random draw from the data of one study; scales do not carry over between parts.

Set 1 — method: universal PBM; molecule type: double-stranded DNA, one strand shown; matrix: in vitro; concentration: not given; reading: higher = stronger binding
Target: Sal-like protein 4, full length isoform B (SALL4, Homo sapiens, UniProt Q9UJQ4-2, residues 1-616)
Setting: 8-mer, flanks averaged, mean of replicates
Construct (chain): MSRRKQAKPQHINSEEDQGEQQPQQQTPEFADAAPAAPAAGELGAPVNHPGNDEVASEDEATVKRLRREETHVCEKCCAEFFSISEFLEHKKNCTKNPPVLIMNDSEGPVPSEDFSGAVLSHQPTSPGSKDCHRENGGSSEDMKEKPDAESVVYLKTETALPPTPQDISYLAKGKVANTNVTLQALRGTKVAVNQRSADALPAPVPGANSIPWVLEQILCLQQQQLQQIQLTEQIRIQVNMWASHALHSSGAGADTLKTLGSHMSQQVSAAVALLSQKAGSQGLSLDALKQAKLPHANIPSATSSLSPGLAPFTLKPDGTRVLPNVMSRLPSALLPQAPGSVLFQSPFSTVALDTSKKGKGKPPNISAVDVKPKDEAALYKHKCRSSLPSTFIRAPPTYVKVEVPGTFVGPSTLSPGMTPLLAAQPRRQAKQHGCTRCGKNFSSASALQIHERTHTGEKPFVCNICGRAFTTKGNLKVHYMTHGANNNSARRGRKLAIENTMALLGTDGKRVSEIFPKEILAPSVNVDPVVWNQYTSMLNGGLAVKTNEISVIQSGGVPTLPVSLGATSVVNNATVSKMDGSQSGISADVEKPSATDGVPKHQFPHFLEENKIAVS
Oligonucleotide | E-score
AACTGACT | -0.084
AATTCCCG | -0.0189
CCCAGAGA | -0.195
CTTAGAAC | 0.0706
GCCCAGTA | -0.17
GTGAGGCA | -0.168
GTGACCTA | -0.0964
CGGTGCTC | -0.246
ACACTCAT | 0.266
AATTCAGG | 0.126
ATCCCCGA | -0.0127
CAGACCAA | -0.0637
GTTTTGCA | 0.0892
AATAACAA | 0.341
AGGTGCTC | -0.27
AGGTACAA | 0.118
CTGGAACC | -0.295
CCGGGACG | -0.253
AAGGCAAT | 0.131

Set 2 — method: RNA Bind-n-Seq; molecule type: RNA; matrix: in vitro; concentration: 365 nM; baseline: no-protein control; reading: higher = stronger binding
Target: RNA binding protein fox-1 homolog 2, RRM domain, GST-SBP tag (RBFOX2, Homo sapiens, UniProt O43251-10, residues 100-194)
Setting: natural RNA segment, single round, ends assumed
Shared flanks, not repeated: GGGAGUUCUACAGUCCGACGAUC … UGGAAUUCUCGGGUGCCAA
Target sequence (chain): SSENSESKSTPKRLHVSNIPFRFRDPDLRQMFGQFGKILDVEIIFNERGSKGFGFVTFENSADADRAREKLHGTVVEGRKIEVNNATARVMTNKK
Oligonucleotide | RBNS enrichment (R)
GAAGAUCAGUCUAAGCUGCCACGGUGAUGAGACCUUCUCAUUAUGUAACUCUUGAUGGCAUUUCCCUUCUGAGUGAAGAUUUGAAAUAUGAUUGAUUAGAAUUGUGCUCU | 0.339
UAAGGGUCCUAUGUGGCUGUGUUGUGACAGCCCUUACCCAGGUAAGAGAUGGAUGUCGUGAUGCCUCGUUGCCUUAAUGAGAGCUGAGUCAGCUGUCCUUCACCCUGGGA | 0.253
AGAUGUGUGCCAUACUCUGGUUCUUAGAGUUCCAGAGCUCCUUCAUUGGUUUUAAUAAACUCUAAGGUAGUUAAAGAUGAAGGGCCAGCAUAUAUUUAUAUGAUAAGUUU | 0.447
CCACCAGAGGGAAGAGUCUCUUGUGGGUGUGUUGGGUCUCCUAAUAAGAUGACUCUCCAUCUAGAUCAAGUCUUAGCAUCAUACGCAUCACUGUGAACGGAGGGAAGUGC | 0.455
UGGGCUGCUACUGUUGGCCACCCUGUGUCUAGUGAUGCUCUCUGUGCUCACCUCCUAGGCCAUGGAGCCUGAGGGGGCCUGCACCAGGUUUGCUGAAACUGACAGAGCCU | 0.191
UAUGGAAACAUGAGAUUCUCCUCUAUUGGAAGCUAAUUAGCCCACAAAGGUGGUAAACCUGUAGAUUGGGCCUUAAUUAGCAUUGUACUCUAAUCAAAGGACUCUUUCUA | 0.226
UUACACAGAUAGGCAGGCAGGGUGGCAGUCACCUCCCCUGUCCACGUGGAUCCAUCCCUGCCAUUGUGUGAGUCAGAGGGAUAGAUCUGAAGCCUGUGAAUGAUGUCUGG | 0.539
UUUUCUACUUGUGUGUCUGGGGGAAUGAACGCACAGAUCUGUUUGACUUUGUUAUAAAAAUAGGGCUCCCCCACCUCCCCCAUUUCUGUGUCCUUUAUUGUAGCAUUGCU | 1.13
UCCUGUAAUAGACUCGGGUCCUGUCCACGGCCCUGGCCGCCCACAAUCCAGCCCACAAAUCCACAUGGCUGUUCCCAGCAGUGCUGUGGUACACUGUGACAGUGGCUCUA | 0.421
UGGACGCACAUAUACAUAGAUGUACUCACUUAUCUAUGGUACAGAUGGGUGGGGAAGAGGUUGCUCUUUACUCUCCAUCUCUGACACAAAGUGUAGCUGCUAGAGGGAUG | 0.272
UAAAGUCCAAGACAUAGGUUUUUCUAGUUUAUUCCCUGAAGAUCUGUUGCCACAGUUGGGAGAUUUCUUCUUAAUCCUGAUUUUCUUGGUAAGCUUUUUUACUUUAUUAU | 0.39
AGUAUUUCAUAUUUAUAAAUAUGCGUUUAUUUAAAAGGAGAACAAAAGCUUGACUCUGAUUCACAGUUUUGUAUGUAGCUGGUUUGACGUAGUCUUUUGUAUUUUCCCUG | 4.02

Set 3 — method: protein-binding microarray; molecule type: double-stranded DNA, one strand shown; matrix: in vitro; concentration: 940 nM top; setting: 60-bp whole probe; together with: salmon DNA 0.4 mg/ml; baseline: random background probes; reading: higher = stronger binding; shared flanks, not repeated: GCCTAGCAC … GTCTTGATTCGCTTGACGCTGCTG
Target: Interferon regulatory factor 5, full length, phosphomimetic (IRF5, Homo sapiens, UniProt Q13568-2, residues 1-514, S451D/S453D/S456D/S462D)
Oligonucleotide | fitted relative affinity [z-score]
TTAGGTCGCGGTCTCGGTTAGTGCTAG | 1.99
GACGGGTTCCTTATCCTGACGTGCTAG | 0.148
TTAGGTTTCGGTATCGGATAGTGCTAG | 14.7
TTAGATATCGGGACAGGATTAGTGCTA | 0.353
GACGGTTTCCTACTGCTAACGTGCTAG | 0.704
GCCTACTCGCTCGTCCGGAGGTGCTAG | -0.399
GACGAACCGAGTCTCGAGACGTGCTAG | 0.538
CACGATCTCAGTTTCGAGACGTGCTAG | 3.79
GACGATTTCGGGTATGGAGACGTGCTA | 0.732
TTAGGTTTCGGGTGTCGGTTAGTGCTA | 10.8
TTCGATCTCAGTATCGATTAGTGCTAG | 5.48
AGGGCGGCTGAGTCAGCACAGTGCTAG | -0.817
GGCCATTTCCCTTGCCGCGCGTGCTAG | 0.602
TTAGGTAGCGACTATCGGTTAGTGCTA | 0.534
TTAGATATCAGTTTCGACTAGTGCTAG | 4.73
TCACTTGTCCCTCCGGGACTGTGCTAG | 0.131
TTAGGTTTAGGTCTCGGTTAGTGCTAG | 2.83
TTAGATATCGGGTTTCCATTAGTGCTA | 0.794

Set 4 — method: protein binding microarray; molecule type: double-stranded DNA, one strand shown; matrix: in vitro; concentration: not given; baseline: not given; reading: higher = stronger binding
Target: Histone acetyltransferase KAT6A, both winged helices, GST fusion (KAT6A, Homo sapiens, UniProt Q92794, residues 1-181)
Setting: 8-mer, flanks averaged, mean of 2 arrays, mostly near background
Target sequence (chain): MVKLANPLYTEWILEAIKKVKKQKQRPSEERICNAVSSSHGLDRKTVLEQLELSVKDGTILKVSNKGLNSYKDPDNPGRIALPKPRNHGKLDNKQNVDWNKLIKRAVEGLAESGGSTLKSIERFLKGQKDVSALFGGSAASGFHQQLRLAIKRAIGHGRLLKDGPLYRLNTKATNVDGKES
Oligonucleotide | E-score
AGTGAAGA | -0.0531
AGATCGTG | -0.146
GCGAGTCC | 0.133
ACACGGTG | 0.141
CCGACTTA | -0.0831
CGCGAACA | 0.172
AAGAGTTC | -0.174
GAAAGCCA | -0.278
ACGTGTGC | -0.109
CAGAGTCA | 0.0352
GAGGCATC | -0.135
TTTTAAAA | 0.02
AACGTGGA | -0.0178
ATCATTAC | -0.0527
AACACTAG | -0.0676
CATGACTA | -0.0468
CCTGGAGA | -0.247
CCTTGTGC | -0.0791

A few entries again (set 1):
Oligonucleotide | E-score
ATCCCCGA | -0.0127
CAGACCAA | -0.0637
GTTTTGCA | 0.0892
AATAACAA | 0.341
AGGTGCTC | -0.27
AGGTACAA | 0.118
CTGGAACC | -0.295
